Results pooled from the literature.
A part holds a random share of what one study measured.

Sample 1
Target: Interferon regulatory factor 3, full length, phosphomimetic (IRF3, Homo sapiens, UniProt Q14653, residues 1-427, S386D/S396D/S398D/S402D/T404D/S405D)
UniProt Q14653, sequence (whole entry, unmodified, looked up): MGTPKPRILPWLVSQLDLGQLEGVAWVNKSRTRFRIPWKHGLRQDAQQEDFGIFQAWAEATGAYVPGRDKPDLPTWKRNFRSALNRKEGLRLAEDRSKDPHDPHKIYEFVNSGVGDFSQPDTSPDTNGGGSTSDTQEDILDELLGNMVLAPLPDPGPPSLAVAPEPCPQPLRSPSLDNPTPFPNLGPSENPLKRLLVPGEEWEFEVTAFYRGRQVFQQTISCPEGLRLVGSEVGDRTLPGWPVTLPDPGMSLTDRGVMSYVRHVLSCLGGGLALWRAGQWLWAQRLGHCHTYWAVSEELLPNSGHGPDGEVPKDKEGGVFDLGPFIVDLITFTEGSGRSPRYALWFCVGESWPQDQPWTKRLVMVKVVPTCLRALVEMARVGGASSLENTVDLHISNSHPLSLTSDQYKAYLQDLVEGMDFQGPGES
Method: protein-binding microarray
Form: double-stranded DNA, one strand shown
Matrix: in vitro
Tested at: 2540 nM top
Notes: 60-bp whole probe
With: salmon DNA 0.4 mg/ml
Reference: random background probes
Direction: higher = stronger binding
Quantity: fitted relative affinity
Constant ends, left off below: GCCTAGCAC … GTCTTGATTCGCTTGACGCTGCTG
GGCCATTTCCCTTGCCGCGCGTGCTAG: 1.1 z-score
GACGATATCACTCTCGAGACGTGCTAG: 1.48 z-score
TTAGGTTTCCTTTTCCTTTGGTGCTAG: 12 z-score
GACGGTATCGGGACGGGGGACGTGCTA: 1.36 z-score
GACGGTTTCGACTATGGGGACGTGCTA: 2.89 z-score
TTAGGTATAGACTTTCGGTTAGTGCTA: 1.01 z-score
TTAGATATCAGTTTAGATTAGTGCTAG: 1.84 z-score
GACGGACTGGGGACAGGGGACGTGCTA: -0.673 z-score
TTTCCCATGAGTCTCAATATGTGCTAG: 3.56 z-score
GACGGTTTTGGGTATCGGGACGTGCTA: 1.49 z-score
GACGATTTCAGTATCTAGACGTGCTAG: 2.13 z-score
TCACTTCTGGTCTTCTGACTGTGCTAG: 1.22 z-score
CTTTTTTTTTTTTTCTGATCGTGCTAG: 3.19 z-score
GCCGGACTGGGTCTCGGGACGTGCTAG: -0.241 z-score
TAGGGACTCGGGTCTCCCTTGGTGCTA: -1.07 z-score
CTCCTAATAAATATGAGACTGTGCTAG: 0.995 z-score
TTAGGTTTAGGGTTTCGGTTAGTGCTA: 2.34 z-score
GACGGTATCGGTTTCGTGACGTGCTAG: 5.99 z-score
TTAGATTTCAGCTTCGATTAGTGCTAG: 0.627 z-score

Sample 2
Target: Histone acetyltransferase KAT6A, both winged helices, GST fusion (KAT6A, Homo sapiens, UniProt Q92794, residues 1-181)
Method: protein binding microarray
Form: double-stranded DNA, one strand shown
Matrix: in vitro
Tested at: not given
Notes: 8-mer, flanks averaged, mean of 2 arrays, mostly near background
Reference: not given
Direction: higher = stronger binding
Quantity: E-score
Target sequence (chain): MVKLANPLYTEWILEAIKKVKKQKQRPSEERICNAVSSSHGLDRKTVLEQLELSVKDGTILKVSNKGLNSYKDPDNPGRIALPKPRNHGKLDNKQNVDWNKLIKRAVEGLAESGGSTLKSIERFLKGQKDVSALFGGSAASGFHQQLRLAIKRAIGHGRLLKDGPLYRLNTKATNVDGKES
CGATAGTC: 0.122
AAGTGCCC: -0.129
CTGATCTA: -0.00115
AGTTAGTG: -0.238
ACTATTAC: 0.0667
CCGGAAGC: 0.168
CGTTAGTA: -0.0276
GCTTCGCC: 0.129
CGGCTCCA: 0.211
CATATCAC: -0.0925
CCCAGCGA: -0.104
GGTCACAA: -0.0225
CGTGTAGC: -0.0239
ATACTGGC: -0.229
ACGTTGGC: -0.0348
AGCGTGGA: 0.138
ATAAAAAA: -0.00155
GCTACGGA: 0.222
GCAGCTAA: -0.104
CGTCGATC: 0.0565

Sample 3
Target: Ras GTPase-activating protein-binding protein 1, full length (G3BP1, Homo sapiens, UniProt Q13283)
UniProt Q13283, sequence (whole entry, looked up): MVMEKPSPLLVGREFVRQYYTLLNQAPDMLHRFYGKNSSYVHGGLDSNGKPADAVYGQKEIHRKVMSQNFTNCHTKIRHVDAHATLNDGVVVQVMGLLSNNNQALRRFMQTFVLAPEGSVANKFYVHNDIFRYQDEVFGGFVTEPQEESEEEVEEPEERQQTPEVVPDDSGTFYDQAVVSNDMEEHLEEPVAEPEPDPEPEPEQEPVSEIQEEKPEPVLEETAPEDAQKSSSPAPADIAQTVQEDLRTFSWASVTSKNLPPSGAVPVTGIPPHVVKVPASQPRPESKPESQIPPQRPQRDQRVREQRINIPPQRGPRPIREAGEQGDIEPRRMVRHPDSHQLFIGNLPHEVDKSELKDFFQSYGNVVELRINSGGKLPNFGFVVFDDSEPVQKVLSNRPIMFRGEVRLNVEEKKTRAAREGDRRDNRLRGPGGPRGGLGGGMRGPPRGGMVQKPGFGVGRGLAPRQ
Method: RNA Bind-n-Seq
Form: RNA
Matrix: in vitro
Tested at: 200 nM
Notes: whole 134-nt RNA, ends assumed
With: 150 mM KCl
Reference: input library
Direction: higher = stronger binding
Quantity: log2 enrichment
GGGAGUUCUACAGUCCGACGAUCUGUGCUACACAUCGUAUGUACCGAAUCGGGGAAAAAAAGGGAAAAAAAGGGGAAAAAAAGGGGAAAGUAUUAUGUUACGCCGUUCGGAUCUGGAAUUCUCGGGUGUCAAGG: -0.347
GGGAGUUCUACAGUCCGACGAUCGCAGGAAGUAAAAACAAAUGUAAAUGCUUCGGAUAGUGGCAGGGGUGGGGGUUGCUAAGGAAAGGGUGGGAUGGGAGUGGGUAAAGAGUUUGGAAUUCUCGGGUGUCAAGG: 1.02
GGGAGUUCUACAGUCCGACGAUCUCCUGUGCUACACAUCGUAUGUACCGAAUCGGGUUUUUGGGUUUUUGGGGUUUUUGGGGAAAGUAUUAUGUUACGCCGUUCGGAUCUGCAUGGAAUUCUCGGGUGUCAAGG: 0.117
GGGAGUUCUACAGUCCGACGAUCAGUCCUGUGCUACACAUCGUAUGUACCGAAUCGGCCCCCGGGCCCCCGGCCCCCGGGGAAAGUAUUAUGUUACGCCGUUCGGAUCUGCACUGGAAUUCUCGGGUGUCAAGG: -0.527
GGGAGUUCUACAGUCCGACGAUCUAACUUUAGAGGAGGAUCAGAUGGAUAUGGCAGUGGACGUGGAUUUGGGGAUGGCUAUAAUGGGUAUGGAGGAGGACCUGGAGGUGGCAAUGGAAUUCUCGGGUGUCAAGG: 0.315
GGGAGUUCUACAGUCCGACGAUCAGUCCUGUGCUACACAUCGUAUGUACCGAAUCGGGAAAAAGGGAAAGGGAAAAAGGGAAAGUAUUAUGUUACGCCGUUCGGAUCUGCACUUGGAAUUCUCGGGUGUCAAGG: -0.433
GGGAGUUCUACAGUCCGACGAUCCAAGUCCUGUGCUACACAUCGUAUGUACCGAAUCGGUUUUUGGUUUGGAAAAAGGAAAGUAUUAUGUUACGCCGUUCGGAUCUGCACUUCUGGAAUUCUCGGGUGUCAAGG: -1.09
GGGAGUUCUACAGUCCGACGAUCAAGGCACGUAAGUUUAAGCUUUUUUUUUUUUUAAGUUAAUGGGAAAAAUUUGAGACGCAAUACCAAUACUUAGGAUUUUGGUCUUGGUGUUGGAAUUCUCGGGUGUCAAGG: -0.56
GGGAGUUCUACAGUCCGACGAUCAAGUCCUGUGCUACACAUCGUAUGUACCGAAUCGGGUGGGAAAAAAAGGGAAAGGGAAAGUAUUAUGUUACGCCGUUCGGAUCUGCACUUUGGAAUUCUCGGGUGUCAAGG: 0.0115

Sample 4
Target: RNA binding protein fox-1 homolog 2, RRM domain, GST-SBP tag (RBFOX2, Homo sapiens, UniProt O43251-10, residues 100-194)
Method: RNA Bind-n-Seq
Form: RNA
Matrix: in vitro
Tested at: 365 nM
Notes: natural RNA segment, single round, ends assumed
Reference: no-protein control
Direction: higher = stronger binding
Quantity: RBNS enrichment (R)
Target sequence (chain): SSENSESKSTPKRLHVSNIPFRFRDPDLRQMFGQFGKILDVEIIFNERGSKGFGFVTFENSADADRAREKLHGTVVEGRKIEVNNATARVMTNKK
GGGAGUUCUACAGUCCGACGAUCAUUAUUAAUAACAGUCAUGGCACACUGUGUCCUAUCUUAGCAUUUAAAAGUAUGCAAACUCCAGGUCAGCUUCAGUCAUUGAGUGCAGUCAUGACGUCAGACUCCAGAAUUGGAAUUCUCGGGUGCCAA: 0.262
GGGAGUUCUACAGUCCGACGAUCAUUUCCCCACAGGGACCCACGCACCUCCCUGUAUCUGCGCAGCUUGCUCGUGUGGCUGGAAGCGCUGUCGAUAAGCUUCACGCACUGGCUUGCCAGUUCUUCAGCUCUAGUGGAAUUCUCGGGUGCCAA: 0.286
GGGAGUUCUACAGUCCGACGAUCGGCUUGCUGCAGGAGGCCCACGUCUGGCCUUUUUCUGUGGGACACUUCUGACCUUGACACUCCGGCCUCAAGCAGUUGCUGCAGAGUGGUUCUUUUUGCAUUUAAUGCCCUGGAAUUCUCGGGUGCCAA: 0.372
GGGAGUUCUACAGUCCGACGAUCGGUCCUCUAGAGCACGGGUUUGGAGAAAUGACUGUUUUCAUGAAAGCACCAUUAGCACCACAGAAUUCACCCACUGCCUGUUUUUCCUUUUCCUUUCUCAAACCUACUCAUGGAAUUCUCGGGUGCCAA: 2.95
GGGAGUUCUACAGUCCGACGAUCCCACGCACACCCCUACCCCUCUGUGAGGAGCUGUGGGAAGUGUGGGUUUGUCUCCAGAACAGAAGAGAAUGAUGGAUAUUCUGGCUCUGGGGCCCUCUCCACCACCACUCUGGAAUUCUCGGGUGCCAA: 0.616
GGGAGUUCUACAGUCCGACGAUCGACAUUUUGAGGUCUGCUUAGCUAUGGCCCCCCUUUCCCAGAUGACCCCUUUCAUGGAAACGGUGUCUGGGGCAGAUAAACAUUGGGUACCUUCACUGUUUUGAGGGGGGUGGAAUUCUCGGGUGCCAA: 0.194
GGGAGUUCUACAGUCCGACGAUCGUGAUCUUUUCAAUUCAGUGAAUAAACCAGGAAUCCAUUUUUUCACCAACCCACCCUGUAGAUUGUCAGCUUUUUGUUUGAGAGAUGCCUGGUCUCACAGUUACAUGUAUUGGAAUUCUCGGGUGCCAA: 0.755
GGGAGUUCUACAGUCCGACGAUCUCUGCUCGAAGCUGUCACUUCCUUCUAAGGAUUUACAGAGGCCUAGGGCCCUAACCUUCAGGGGUGGGGACACAAUUAAAGGAAGGGAAUGUAUAAAGAAAUUAUUCUUCUGGAAUUCUCGGGUGCCAA: 0.433

A few entries again (sample 1):
TTAGGTATAGACTTTCGGTTAGTGCTA: 1.01 z-score
TTAGATATCAGTTTAGATTAGTGCTAG: 1.84 z-score
GACGGACTGGGGACAGGGGACGTGCTA: -0.673 z-score
TTTCCCATGAGTCTCAATATGTGCTAG: 3.56 z-score
GACGGTTTTGGGTATCGGGACGTGCTA: 1.49 z-score
GACGATTTCAGTATCTAGACGTGCTAG: 2.13 z-score
TCACTTCTGGTCTTCTGACTGTGCTAG: 1.22 z-score
CTTTTTTTTTTTTTCTGATCGTGCTAG: 3.19 z-score
